Published values gathered from unrelated publications.
A part holds a random share of what one study measured.

Set 1
Target: RNA binding protein fox-1 homolog 2, RRM domain, GST-SBP tag (RBFOX2, Homo sapiens, UniProt O43251-10, residues 100-194)
Method: RNA Bind-n-Seq
Molecule type: RNA
Medium: in vitro
Concentration: 365 nM
Setting: natural RNA segment, single round, ends assumed
Relative to: no-protein control
Reading: higher = stronger binding
Quantity: RBNS enrichment (R)
Shared flanks, not repeated: GGGAGUUCUACAGUCCGACGAUC … UGGAAUUCUCGGGUGCCAA
Residues (chain): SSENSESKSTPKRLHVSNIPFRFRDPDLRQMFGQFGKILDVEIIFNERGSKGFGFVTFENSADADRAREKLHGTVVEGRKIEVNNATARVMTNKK
AAAGCCUAAAGCCCUUUAGCGUUGUGAACCUCAGUAGUAGCUGAAAGAGAAGCUGCCACAGGUUGUACUUGCUCUGUGAGAUGUUGUAGACAUUCCGUAAGAGAAUCCAG: 0.345
CCUUCCUAGACCCUUGGACUCUCAGAUGCAGGGCCCUUGGCUCUGGCCUCUCACCCCCAAGGCUGUCUCUGGCCCUGCCGAGCCUAUGGGAGUCCCGGGACAGAGUGCCC: 0.255
UCUGUUCAGCCUUUCAUCUAUCCAUCCUUCCUCUUUAUUGGUAGAAGAAACAGUGGAGAGUAGCCACUUCUGGUUCUAGCACUUCUCUUUUGUUAAGAUAGGGUUUGGAU: 0.294
UAUAAAUUUUAUGAAACCCAAGCAUAGUGCUUAUUUUUUAAUAAAACAACUGACUUAACACAUUGUGAUGAUGGGUUGGAAGUGGAGAGAUUUUUAUGUCUGUCCCCCCU: 0.267
CAUAUCCUACACAGAAAAAUACUUUUAGACUUAUAUUGCCAAGCCAAAGUUACCAUAUUUUGGUGUUUUUGUGUUUUCUCUUUAUAAGGCAAAAAGAUCUGUAUUUACAC: 0.352
CCCUGCACCUCGCACAGAACCAAGAGCCACCAGCCUCCUGAUGGCAGGGGCCUAGCCCUGGGCAUAUUCAUUUGUUUGCUUCUCUGGGACAGUAUGCCCUGCCUUCCCUG: 0.886
GCAGCUACAUUUGAAAGUGAUAGAAUAAAGAGAUUUUAAUGAGUUAUCACUUUUUCAGCUGAUAUAUUCAUUUUAAUGGCUUUUUUGAAAGUUCCUUUUUCAUGAACACA: 0.476
AUGACUGUGUUCACUUAAGUUUAGAGAAACACUGGGUUUUGCUAAACUCGGUUAACAAAAGCCACUGGUAACUGAAGGUAUUUAAGCUAGGGUCAUUUGAAAGCUUCAGC: 0.275
UUUUGCUUCUUGGUCAAGAAAGGAGGGGAGAACCCAGCGCACCCCUCCCCCCCUUUUUUUAAACGCGUGAUGAAGACAGAAGGCUCCGGGGUGACGAAUUUGGCCGAUGG: 0.843
UUUGUACUAAAGUUUAUAGGUCUGUGCCAGCUAGAGAGAAGUUGCUGUCAUUACCAGUUGUGGUCCUAGCAUCUAACCCUGAAACCAUCCUAGGUGACAUUUUUAGAAUU: 0.293
CAUGUAAACACAGUACCUCAGUUUUCUGUCCACAGCUGCAGUCGCUCUGUCCCUCGUGCUUCACUGUGGGCAGCCAGGGACAAGCUUCUGAAAGCAGUGUGAUACCCAAG: 0.32
UUCCCAUGUUGAUGAAAGUACUGCACAGUUUCAAAGGCAUGGUAAAUAAUGUGUUUCUUUCAUAUAUAUUUUUUUCCAAAAGCAGCAAAAAUUCAUAUCCAGUGAAGAUC: 2.23

Set 2
Target: PABPC1L2, full length, GST fusion (mouse, UniProt A0ABA7IW68)
Method: RNAcompete
Molecule type: RNA
Medium: in vitro
Concentration: 20 nM
Setting: 7-mer, probes averaged, single round
Relative to: mean of 7-mers
Reading: higher = stronger binding
Quantity: 7-mer Z-score
Target sequence (chain): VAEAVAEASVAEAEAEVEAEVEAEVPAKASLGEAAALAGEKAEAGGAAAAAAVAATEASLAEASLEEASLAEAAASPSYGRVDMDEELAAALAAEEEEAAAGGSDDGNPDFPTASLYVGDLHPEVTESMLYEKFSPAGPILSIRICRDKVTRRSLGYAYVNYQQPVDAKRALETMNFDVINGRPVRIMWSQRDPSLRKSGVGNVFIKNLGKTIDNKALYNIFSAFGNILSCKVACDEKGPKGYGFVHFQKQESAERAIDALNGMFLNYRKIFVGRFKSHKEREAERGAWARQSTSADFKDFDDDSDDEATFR
CAACACC: 0.00979
GGACAUU: -0.104
GGAGCAG: 0.119
GGGAUUA: 0.1
UGUCUGG: -0.26
UUCGGGG: -0.0283
CACGCGC: -0.353
AAUCAUG: 0.0841
ACACGAA: 0.157
AAGAACU: 0.526
UUUAUAU: -0.133
ACAUUAG: 0.104
UCUUCAA: -0.269
CUGCCGU: -0.394
AGCAUUU: -0.151
AUAUAGA: 0.00617
CGACAGU: 0.0678

Set 3
Target: Hepatocyte nuclear factor 3-beta, forkhead domain (FOXA2, Homo sapiens, UniProt Q9Y261, residues 142-269)
Method: protein-binding microarray
Molecule type: double-stranded DNA, one strand shown
Medium: in vitro
Concentration: not given
Setting: k-mer, scored over probes, only values ≥0.25
Reading: higher = stronger binding
Quantity: E-score
Target sequence (chain): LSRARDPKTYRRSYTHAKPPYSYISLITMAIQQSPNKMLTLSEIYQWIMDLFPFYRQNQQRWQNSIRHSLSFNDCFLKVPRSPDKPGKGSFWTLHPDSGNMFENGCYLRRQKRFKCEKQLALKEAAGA
ACTATTTG: 0.285
TGTGATAA: 0.288
ATGGTAAA: 0.294
ACCTTATA: 0.285
AATACAGT: 0.362
ACAACACA: 0.29
ATGTAATA: 0.319
CACACTTA: 0.319
CATAATCA: 0.338
CAACATTA: 0.344
ATTTTATA: 0.272
ATCACGTA: 0.26
ACTTAGAT: 0.317
AATGTGCA: 0.252
ATACAAGC: 0.261
GTTACTAA: 0.279
TACATTAA: 0.303
AGTTATAT: 0.33
AATTAATG: 0.262
CCCATATA: 0.271
ATTCATCA: 0.259
ATAAATAC: 0.375
AACATATA: 0.373
TCAACAAA: 0.314
AGTAGAAT: 0.284

Set 4
Target: Histone acetyltransferase KAT6A, winged helix 1, GST fusion (KAT6A, Homo sapiens, UniProt Q92794, residues 1-85)
Method: protein binding microarray
Molecule type: double-stranded DNA, one strand shown
Medium: in vitro
Concentration: not given
Setting: 8-mer, flanks averaged, mean of 2 arrays, mostly near background
Relative to: not given
Reading: higher = stronger binding
Quantity: E-score
Construct (chain): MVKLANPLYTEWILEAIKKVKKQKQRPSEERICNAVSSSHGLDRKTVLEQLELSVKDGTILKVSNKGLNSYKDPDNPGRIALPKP
ACTTGCGG: 0.0844
GACTAAGA: -0.0277
AGGTTGAA: -0.0124
GCAAGGCA: -0.174
AGGGACAA: -0.06
ATCTGTCC: -0.0509
CGGAGAGC: 0.211
CAGAACGC: 0.212
AGTCCGTA: 0.207
AAGGATTA: -0.216
GCAATCCA: -0.133
GACGTTCA: 0.0355
ATAAAAGC: 0.0234
ACGTGCGG: 0.216
CGCGCCCG: 0.457
AAGCGAAG: -0.0269
AGGCCCCA: -0.00891
CTCCCTGC: -0.105
ACAACTGG: -0.235
GCTTTAAA: -0.144
ACTCTTGA: -0.24
CTATTACC: 0.0246
CACCTTCG: 0.000255
CTGGACCC: -0.173

Set 5
Target: Sal-like protein 4, full length isoform A (SALL4, Homo sapiens, UniProt Q9UJQ4, residues 1-1053)
Sequence of UniProt Q9UJQ4 (whole entry, looked up): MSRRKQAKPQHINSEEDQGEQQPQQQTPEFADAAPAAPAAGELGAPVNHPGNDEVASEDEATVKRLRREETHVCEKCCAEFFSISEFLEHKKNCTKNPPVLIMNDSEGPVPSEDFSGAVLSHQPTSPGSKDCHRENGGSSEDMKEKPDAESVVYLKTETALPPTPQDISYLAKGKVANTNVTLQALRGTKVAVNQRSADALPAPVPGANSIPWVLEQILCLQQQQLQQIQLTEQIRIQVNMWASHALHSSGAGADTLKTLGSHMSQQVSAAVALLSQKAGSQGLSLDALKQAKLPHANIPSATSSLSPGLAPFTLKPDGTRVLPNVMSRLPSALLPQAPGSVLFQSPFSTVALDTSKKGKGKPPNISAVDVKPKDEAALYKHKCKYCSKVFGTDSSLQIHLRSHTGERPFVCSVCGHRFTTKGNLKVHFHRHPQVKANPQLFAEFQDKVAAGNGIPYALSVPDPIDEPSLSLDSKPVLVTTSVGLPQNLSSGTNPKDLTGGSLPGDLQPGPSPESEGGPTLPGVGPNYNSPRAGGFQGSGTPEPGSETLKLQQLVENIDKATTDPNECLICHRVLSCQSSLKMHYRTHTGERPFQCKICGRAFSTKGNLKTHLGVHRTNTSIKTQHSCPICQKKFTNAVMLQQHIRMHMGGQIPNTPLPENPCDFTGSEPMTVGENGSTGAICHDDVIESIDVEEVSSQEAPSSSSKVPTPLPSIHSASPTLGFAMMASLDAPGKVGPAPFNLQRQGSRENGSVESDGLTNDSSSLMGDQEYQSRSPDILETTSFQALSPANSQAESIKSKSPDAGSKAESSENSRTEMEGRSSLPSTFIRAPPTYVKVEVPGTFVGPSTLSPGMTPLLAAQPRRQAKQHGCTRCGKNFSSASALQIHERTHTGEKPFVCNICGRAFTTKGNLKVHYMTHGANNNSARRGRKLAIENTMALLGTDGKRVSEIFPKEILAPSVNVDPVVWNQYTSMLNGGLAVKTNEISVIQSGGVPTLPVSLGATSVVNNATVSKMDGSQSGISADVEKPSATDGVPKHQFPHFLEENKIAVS
Method: universal PBM
Molecule type: double-stranded DNA, one strand shown
Medium: in vitro
Concentration: 600 nM
Setting: 8-mer, flanks averaged, mean of replicates
Reading: higher = stronger binding
Quantity: E-score
CAGACAAA: 0.0498
GCTATAAC: 0.147
AAGTGTTC: 0.0142
TAGTACGA: 0.149
ACGAGGCT: 0.00357
GCAGATGA: -0.0847
CAGTACAA: 0.0805
GCGATCCC: -0.257
CGTACCTC: -0.238
AATGGCGA: 0.076
GCGGGCTA: -0.226
GATAAGGC: 0.0304
ATATCAAA: 0.386
AGTCATTC: 0.107
GTCGTATA: 0.12
AGCCGCTG: -0.216
ATTAACGA: 0.282
ATCGCAAG: -0.108
AAGTGAAT: 0.19
ATCACGGC: 0.0317
GGTTCCAC: -0.185
CACAGAGC: -0.158
AGTGGACC: -0.268
GCACGGCA: -0.142
CATAAGTA: 0.269

Set 6
Molecule: TSSAQRRLEIPSGGAD
Method: competitive growth deep sequencing
Molecule type: peptide
Concentration: concentration not given
Reading: direction not given
Quantity: growth enrichment score
yeast with cyclin A1-Cln2 chimera; cell growth, binder; peptide tiling library: 0.195
yeast with cyclin E2-Cln2 chimera; cell growth, binder; peptide tiling library: -0.139
yeast with cyclin D2-Cln2 chimera; cell growth, binder; peptide tiling library: -0.766
Saccharomyces cerevisiae; binding; cyclin D3-Cln2 fusion strain; tiling library, Cln2 subtracted: -0.199
yeast with cyclin D1-Cln2 chimera; cell growth, binder; peptide tiling library: -0.431
Saccharomyces cerevisiae; binding; cyclin D2-Cln2 fusion strain; peptide tiling library: -1.14
Saccharomyces cerevisiae; binding; cyclin D3-Cln2 fusion strain; peptide tiling library: 0.388
Saccharomyces cerevisiae; binding; cyclin E1-Cln2 fusion strain; tiling library, Cln2 subtracted: 0.0797
yeast with cyclin B3-Cln2 chimera; cell growth, binder; peptide tiling library: 0.648

Set 7
Target: RING finger protein unkempt homolog, zinc fingers 1-6, GST-SBP tag (UNK, Homo sapiens, UniProt Q9C0B0, residues 30-357)
Method: RNA Bind-n-Seq
Molecule type: RNA
Medium: in vitro
Concentration: not given
Setting: RNA with constant flanks, human and mouse sites, ends assumed
Relative to: input RNA pool
Reading: higher = stronger binding
Quantity: bound/input enrichment
Shared flanks, not repeated: GGGAGUUCUACAGUCCGACGAUC … CAACAGAGGAUUGAGCAUCA
Target sequence (chain): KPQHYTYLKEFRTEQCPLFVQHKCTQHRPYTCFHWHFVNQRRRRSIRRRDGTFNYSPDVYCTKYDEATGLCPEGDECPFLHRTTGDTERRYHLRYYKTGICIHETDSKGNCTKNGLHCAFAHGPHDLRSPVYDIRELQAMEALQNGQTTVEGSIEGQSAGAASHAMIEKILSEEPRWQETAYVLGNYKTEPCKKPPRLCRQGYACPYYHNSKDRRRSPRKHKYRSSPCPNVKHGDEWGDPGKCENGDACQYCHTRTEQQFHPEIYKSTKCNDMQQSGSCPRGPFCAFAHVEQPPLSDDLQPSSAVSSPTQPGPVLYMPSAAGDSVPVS
AAGAGUGCAGACGACUUUAUAGAUAAGCACAUUGCUGAAUUAAUAUUUUACAUGGAAGAACUUAGAGCACAUGUGAGGAAAUACGGACCUGUAAUGCAGAGGUAUUACGUGCAGUACCUU: 1.26 ratio
AGAUAAGGGUUCUUGGUUUUUGUUUGUUUUCUCUACAUCAUUUCGUGUUUUUGUAUUCUGCACCAUUUUACAAAUGAAGAUGUGUUUGCAGUUAUUUUUUCCAGCUAUAAACCUAGAAUA: 0.335 ratio
AUCCAUGCUGCAUCUUUGAAGCUGCUACAGGACCAAGGACUGAAUAUUCCAAGUGUUGUUAAUUUUCAGAUAAUCUCCACCUACAAGCAUAUGAAGCUGCACAAGAUGCUUGAAAAUACA: 0.125 ratio
GCAUGUUGGGUUUGCAGGACUGGCCCACACAGUCCCCUGCAGGUGGCAGCCCUCUUUUCUGUUUCUCGCUGUCAAGAGGGUGUAAGUAUUCCACCAGCCCGCUGAGUGUGCACGAAAUGU: 0.0769 ratio
CUGGGUUGGCAAUUGACUGGUCAAGAAACCCAUGAGUUACAAAUGUGUUUGAAACAAAUAAUUAGAAACAUAAAAUUCAAAAUGCCCCAAUAUAGCACUUUUGGGGAUUCAACUUCUACA: 1.87 ratio
CUCCUGCAGGACAUCGUCCUCCAUGUUUUUAAGUAUUUGCCUCUUCUUGACCGGGCUCAUGCUUCCCAAGUGUGCCGGAAUUGGAAUCAGGUAUUUCACAUGCCUGACUUGUGGCGAUGU: 0.169 ratio
CACAAUUGCUCUUACAAUUACAAAGCUGAUGCUGCUGAGAAAAUCAGAAAAGAAAAUCCAGUAGUUGUUGGUGAAAAGAUCCAGAAGAUUUGAACUCCUGCUGGAAUACAAAAUCCUUUG: 0.132 ratio
AAGAAUCUGAGGACCCGACACCUACAAAUUUGCCGUUAUUCCCACUUCUUGAUGAAGGAAUAGCUAGAUGAACAAAGUGUUCUGCAGAGGCCUUUUAUGUGUUUAUGUGGUCCUCAAAGA: 0.353 ratio
